Measurements collected from several papers.
Protocols differ between the studies behind these lines. Values joined by “and” are separate records of one study, mostly repeats; a detail may differ. ± gives the spread as reported.

CC1CCC2C(C)C(OC(=O)CCC(=O)N3CCN(CC(=O)Nc4ccc([N+](=O)[O-])c(C(F)(F)F)c4)CC3)OC3OC4(C)CCC1C32OO4 (stereo not drawn)
IC50 (MCF-10A; cell growth or viability, CCK-8): 10700 nM

CC(=O)N[C@H](C(=O)N[C@@H](CCCNC(=N)N)C(=O)N[C@@H](CCCCN)C(=O)N[C@@H](CCCNC(=N)N)C(=O)N[C@H](C(=O)N[C@@H](CC(C)C)C(=O)N[C@@H](CCCNC(=N)N)C(=O)N[C@]1(C)CCCC=CCCC[C@@](C)(C(=O)N[C@@H](CCC(=O)O)C(=O)N[C@@H](CCCNC(=N)N)C(=O)N[C@@H](CCC(=O)O)C(=O)N[C@@H](CC(C)C)C(=O)N[C@H](C(=O)N[C@@H](CCC(=O)O)C(N)=O)C(C)C)NC(=O)[C@H](CC(C)C)NC(=O)[C@H](CC(C)C)NC1=O)[C@@H](C)O)C(C)C
IC50 (H1975 (EGFR L858R/T790M); cell viability, ATP luminescence; 18 h): > 100000 nM

CCOc1ccc(Br)cc1/C=N/NC(=O)CCl
IC50 (AMO1; cell viability): 79 nM

Cc1ccc(C(C)C)cc1.O=C(N=P(c1ccccc1)(c1ccccc1)c1ccccc1)c1ccccn1.[Cl-].[Cl][Ru+]
IC50 (MCF-10A; cell growth or viability, MTT): 2520 nM

O=C(c1cc(Cc2n[nH]c(=O)c3ccccc23)ccc1F)N1CC(CNC2CC2)C1
IC50 (HCC1569): 0.8 nM

CC(C)C12OC1C1OC13C1(C)CCC4=C(COC4=O)C1CC1OC13C2OC(=O)CCC(=O)OC1OC(CO)C(O)C(O)C1O (stereo not drawn)
IC50 (sensitive human cancer cell lines; cell viability, XTT): 490 nM

COc1ccccc1-c1ccncc1C(=O)Nc1nnc(OCc2ccc(Cl)cc2)s1
IC50 (DLD-1 BRCA2 knockout; colony survival): ~1000 nM

CC(=O)N[C@H](C(=O)N[C@@H](CCCNC(=N)N)C(=O)N[C@@H](CCCCN)C(=O)N[C@@H](CCCNC(=N)N)C(=O)N[C@H](C(=O)N[C@@H](CC(C)C)C(=O)N[C@@H](CCCNC(=N)N)C(=O)N[C@@H](CCCNC(=N)N)C(=O)N[C@]1(C)CCCC=CCCC[C@@](C)(C(=O)N[C@@H](CCCNC(=N)N)C(=O)N[C@@H](CCC(=O)O)C(=O)N[C@@H](CC(C)C)C(=O)N[C@H](C(=O)N[C@@H](CCC(=O)O)C(N)=O)C(C)C)NC(=O)[C@H](CCC(N)=O)NC(=O)[C@H](CC(C)C)NC1=O)[C@@H](C)O)C(C)C
IC50 (H1975 (EGFR L858R/T790M); cell viability, ATP luminescence; 18 h): ~60000 nM

Cc1cc(Oc2nc(N3CC[C@@H](c4ccncc4)C3)ncc2F)[nH]n1
IC50 (MT3; cell proliferation): 56200 nM

Cc1ccccc1/C=C/C(=O)N[C@H]1COC(=O)[C@H](CC(=O)O)NC(=O)[C@H]([C@@H](O)C(=O)c2ccccc2N)NC(=O)[C@@H](Cc2ccccc2)NC(=O)[C@@H](NC(=O)[C@@H](Cc2ccccc2)NC(=O)CN)[C@@H](C)OC1=O
IC50 (HCT-116): > 20000 nM

CC(=O)N[C@H](C(=O)N[C@@H](CCCNC(=N)N)C(=O)N[C@@H](CCCCN)C(=O)N[C@@H](CCCNC(=N)N)C(=O)N[C@]1(C)CCCCCCC=CCCC[C@@](C)(C(=O)N[C@@H](CCCNC(=N)N)C(=O)N[C@@H](CCC(=O)O)C(=O)N[C@@H](CC(C)C)C(=O)N[C@H](C(=O)N[C@@H](CCC(=O)O)C(N)=O)C(C)C)NC(=O)[C@H](CCC(N)=O)NC(=O)[C@H](CC(C)C)NC(=O)[C@H](CC(C)C)NC(=O)[C@H](CCCNC(=N)N)NC(=O)[C@H](CCCNC(=N)N)NC(=O)[C@H](CC(C)C)NC1=O)C(C)C
IC50 (H2030, wild-type EGFR): 1670 nM and 2170 nM

Cc1cc(C)cc(COc2cc3c(cc2OCc2cc(C)cc(C)c2)C2CC(O)(Cc4cn(CCOCCOCCOCCNc5cccc6c5C(=O)N(C5CCC(=O)NC5=O)C6=O)nn4)CC(C)N2CC3)c1 (racemic)
IC50 (ASPC1; cell growth or viability, MTT): 920 nM

CC(=O)N[C@H](C(=O)N[C@@H](CCCNC(=N)N)C(=O)N[C@@H](CCCCN)C(=O)N[C@@H](CCCNC(=N)N)C(=O)NC(C)(C)C(=O)N[C@@H](CC(C)C)C(=O)N[C@@H](CCCNC(=N)N)C(=O)N[C@@H](CCCNC(=N)N)C(=O)N[C@@H](CC(C)C)C(=O)N[C@@H](CC(C)C)C(=O)N[C@@H](CCC(N)=O)C(=O)NC(C)(C)C(=O)N[C@@H](CCCNC(=N)N)C(=O)N[C@@H](CCC(=O)O)C(=O)N[C@@H](CC(C)C)C(=O)N[C@H](C(=O)N[C@@H](CCC(=O)O)C(N)=O)C(C)C)C(C)C
IC50 (H1975 (EGFR L858R/T790M); cell viability, ATP luminescence; 18 h): > 100000 nM

Cc1cc(Nc2nc(C[C@@]3(C(=O)O)CCN(Cc4cccc(Cl)c4F)[C@H](C)C3)cc(C)c2F)[nH]n1
IC50 (SW48; cell growth or viability, ATP luminescence; 5 days): 73.1 nM

CC(=O)N[C@H](C(=O)N[C@@H](CCCNC(=N)N)C(=O)N[C@@H](CCCCN)C(=O)N[C@@H](CCCNC(=N)N)C(=O)N[C@]1(C)CCCCCCC=CCCC[C@@](C)(C(=O)N[C@@H](CCCNC(=N)N)C(=O)N[C@@H](CCC(=O)O)C(=O)N[C@@H](CC(C)C)C(=O)N[C@H](C(=O)N[C@@H](CCC(=O)O)C(N)=O)C(C)C)NC(=O)[C@H](CCC(N)=O)NC(=O)[C@H](CC(C)C)NC(=O)[C@H](CC(C)C)NC(=O)[C@H](CCCNC(=N)N)NC(=O)[C@H](CCCNC(=N)N)NC(=O)[C@H](CC(C)C)NC1=O)C(C)C
IC50 (H1975 (EGFR L858R/T790M); cell viability, ATP luminescence; 18 h): 2310 ± 510 nM

C1N2CN3CN1CP(C2)C3.COc1ccc(C(O)=CC(=O)c2ccc(C(C)(C)C)cc2)cc1.Cc1ccc(C(C)C)cc1.[Ru+2]
IC50 (HL-60; phototoxicity; light over 450 nm, 29.1 J/cm2): 140 nM

CC(C)NCCCn1c(Sc2cc3c(cc2I)OCO3)nc2c(N)ncnc21
IC50 (MDA-MB-468; cell death, annexin V, cleaved PARP): 100 nM

Cc1ccc(CC(=O)N2CCN(CC(OCc3ccc4ccccc4c3)c3ccc(Cl)cc3Cl)CC2)cc1 (stereo not drawn)
IC50 (MDA-MB-468; cell growth or viability, MTT; 24 h): 25100 nM

CC[C@H](C)[C@@H]1NC(=O)[C@@H]2CCCN2C(=O)[C@H](C)NC(=O)[C@H](CC(C)C)NC(=O)[C@@H]2CCCN2C(=O)[C@H](C)NC(=O)[C@@H]2CSSC[C@H](NC(=O)[C@H](C)NC(=O)[C@H](C)NC(=O)[C@H](Cc3ccc(O)cc3)NC(=O)[C@@H]3CCCN3C(=O)CNC(=O)[C@H](Cc3c[nH]c4ccccc34)NC1=O)C(=O)N[C@@H](CC(C)C)C(=O)N[C@@H](CO)C(=O)N[C@@H](C)C(=O)N[C@H]1CSSC[C@H](NC(=O)[C@H](C(C)C)NC(=O)[C@@H]3CCCN3C(=O)CNC(=O)CNC(=O)CNC(=O)[C@H](C)NC(=O)[C@H](C)NC(=O)[C@H](CC(C)C)NC1=O)C(=O)N[C@@H](CC(C)C)C(=O)N[C@@H](C)C(=O)N[C@@H](C(C)C)C(=O)N2
IC50 (U-251): > 128 µg/mL

CC(C)C12OC1C1OC13C1(C)CCC4=C(COC4=O)C1CC1OC13C2OC(=O)CCCOC1OC(CO)C(O)C(O)C1O (stereo not drawn)
IC50 (SK-MEL3; cell growth or viability, XTT; 47 h): 440 nM

CC(=O)N[C@H](C(=O)N[C@@H](CCCNC(=N)N)C(=O)N[C@@H](CCCCN)C(=O)N[C@@H](CCCNC(=N)N)C(=O)N[C@H](C(=O)N[C@@H](CC(C)C)C(=O)N[C@@H](CCCNC(=N)N)C(=O)N[C@@]1(C)CCCC=CCCC[C@@](C)(C(=O)N[C@@H](CCCNC(=N)N)C(=O)N[C@@H](CCC(=O)O)C(=O)N[C@@H](CC(C)C)C(=O)N[C@H](C(=O)N[C@@H](CCC(=O)O)C(N)=O)C(C)C)NC(=O)[C@H](CCC(N)=O)NC(=O)[C@H](CC(C)C)NC(=O)[C@H](CC(C)C)NC1=O)[C@@H](C)O)C(C)C
IC50 (H1975 (EGFR L858R/T790M); cell viability, ATP luminescence; 18 h): 4680 ± 1310 nM

CC(=O)N[C@H](C(=O)N[C@@H](CCCNC(=N)N)C(=O)N[C@@H](CCCCN)C(=O)N[C@@H](CCCNC(=N)N)C(=O)N[C@@]1(C)CCCC=CCCC[C@@](C)(C(=O)N[C@@H](CC(C)C)C(=O)N[C@@H](CCC(N)=O)C(=O)N[C@@H](CCC(=O)O)C(=O)N[C@@H](CCCNC(=N)N)C(=O)N[C@@H](CCC(=O)O)C(=O)N[C@@H](CC(C)C)C(=O)N[C@H](C(=O)N[C@@H](CCC(=O)O)C(N)=O)C(C)C)NC(=O)[C@H](CCCNC(=N)N)NC(=O)[C@H](CCCNC(=N)N)NC(=O)[C@H](CC(C)C)NC1=O)C(C)C
IC50 (H2030, wild-type EGFR): 53400 nM and 37100 nM

Cc1sc2c(c1C)C(c1ccc(-c3cccc(NC(=O)c4cnn5cccnc45)c3)cc1)=N[C@@H](CC(N)=O)c1nnc(C)n1-2
IC50 (MOLM-13; cell growth or viability, ATP luminescence; 72 h): 5.8 nM

Cc1ccc(C(C)C)cc1.Cc1ccc(C(C)C)cc1.Cc1ccc(C(C)C)cc1.Cc1ccc(C(C)C)cc1.O=S(=O)(O)C(F)(F)F.O=S(=O)(O)C(F)(F)F.O=S(=O)(O)C(F)(F)F.O=S(=O)(O)C(F)(F)F.c1ccc2c3c4ccccc4c(c2c1)-c1cn(nn1)-c1cc[n+](cc1)[Ru-]1[O]c2ccc4c5c(ccc(c25)=[O+]1)=[O+][Ru-]([O]4)[n+]1ccc(cc1)-n1cc(nn1)-c1c2ccccc2c(c2ccccc12)-c1cn(nn1)-c1cc[n+](cc1)[Ru-]1[O]c2ccc4c5c(ccc(c25)=[O+]1)=[O+][Ru-]([O]4)[n+]1ccc(cc1)-n1cc-3nn1
IC50 (AGS; cell growth, MTT; 24 h, 20 µM preincubated in medium 48 h at 37 °C): 13600 ± 110 nM

For quick reference, copied from above:
CC(C)C12OC1C1OC13C1(C)CCC4=C(COC4=O)C1CC1OC13C2OC(=O)CCCOC1OC(CO)C(O)C(O)C1O (stereo not drawn)
IC50 (SK-MEL3; cell growth or viability, XTT; 47 h): 440 nM

CC(=O)N[C@H](C(=O)N[C@@H](CCCNC(=N)N)C(=O)N[C@@H](CCCCN)C(=O)N[C@@H](CCCNC(=N)N)C(=O)N[C@H](C(=O)N[C@@H](CC(C)C)C(=O)N[C@@H](CCCNC(=N)N)C(=O)N[C@@]1(C)CCCC=CCCC[C@@](C)(C(=O)N[C@@H](CCCNC(=N)N)C(=O)N[C@@H](CCC(=O)O)C(=O)N[C@@H](CC(C)C)C(=O)N[C@H](C(=O)N[C@@H](CCC(=O)O)C(N)=O)C(C)C)NC(=O)[C@H](CCC(N)=O)NC(=O)[C@H](CC(C)C)NC(=O)[C@H](CC(C)C)NC1=O)[C@@H](C)O)C(C)C
IC50 (H1975 (EGFR L858R/T790M); cell viability, ATP luminescence; 18 h): 4680 ± 1310 nM
